{"data": "Published values from different studies", "note": "Each numbered part is a random draw from the data of one study; scales do not carry over between parts."}
{"data": "Set 1", "target": "Hepatocyte nuclear factor 3-alpha (Foxa1, Mus musculus, UniProt P35582, residues 1-468, full length assumed)", "technique": "EMSA with sequencing", "molecule type": "double-stranded DNA, one strand shown", "matrix": "in vitro", "concentration": "10 and 20 nM", "setting": "whole designed probe, mean of two concentrations, ends assumed", "baseline": "negative control set to 0", "reading": "higher = stronger binding", "constant ends, left off below": "GTGAGCGGTGCCCATTGATGGGGAAC … TTTCACTGGGATCGTGGGGAC", "sequence of UniProt P35582 (whole entry, looked up)": "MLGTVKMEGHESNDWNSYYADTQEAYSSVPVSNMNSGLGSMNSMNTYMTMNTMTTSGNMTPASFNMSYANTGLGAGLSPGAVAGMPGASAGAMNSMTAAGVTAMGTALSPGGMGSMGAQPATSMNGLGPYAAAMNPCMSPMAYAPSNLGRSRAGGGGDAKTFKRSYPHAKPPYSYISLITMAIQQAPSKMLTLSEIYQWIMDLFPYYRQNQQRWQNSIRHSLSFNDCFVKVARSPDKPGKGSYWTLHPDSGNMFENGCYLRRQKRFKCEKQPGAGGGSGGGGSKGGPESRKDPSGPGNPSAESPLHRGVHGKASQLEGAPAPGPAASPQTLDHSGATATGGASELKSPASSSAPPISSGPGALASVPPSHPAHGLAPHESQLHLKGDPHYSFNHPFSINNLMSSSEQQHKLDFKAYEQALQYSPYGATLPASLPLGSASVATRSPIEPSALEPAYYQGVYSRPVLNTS"}
{"Sequence": "ATGAAACTGGTCCCTGGTGCCAAAAAGGTTGGGAACTGCTGACGTAGTGGATAAAGGGAACAGAGGTAAATAGACATTTAGTGTGAGGTTTCATGTTTACTTAGCTACGAATTAGGCTGTGTTTGCTGTTTGCTGTCACTTTAGGTGTCAGAGGTTAAAATCTCTGGTGTCCTTGTTTCTGTCTCTCCTGTTG", "normalised bound fraction": "0.497 ratio"}
{"Sequence": "CAGCTTTTCATATCTGGCCATCTTAGAGCAGGGGAGATTGAGAAACAGAGAGAGGAAGAACCAGGGAAAGAAGTCTGGCTCCAAGCCCAGTGGGTAATCTTGCTGGCTGCCTTCTCACACAGATTACTTTTCAAAAATGAAAAGGGAGTGTCCAGCTTCGTTTGGAATAAAGATGAGGAAATGACTCTCAGCT", "normalised bound fraction": "-0.0904 ratio"}
{"Sequence": "AAGAAAAATTATGGCAAAAAAAAAAAGAAAAAAAAAGAAAAAAAAAGATTTCACCTTTCTTTTCCTTCCATGAGACAAGGGGCTAACAACTGTGTCATCTTGAAGTTCTCCACTAGAGGGAACTAATTCCACGTCCTCCAATCGTGAGCTTCATCAGGATGTGTCTGAGAACAGTGCTCTCTCCATGTTTAGA", "normalised bound fraction": "-0.0743 ratio"}
{"Sequence": "AACAATGCTTCTTAAAATATTCTACCATATTTTAAGAAGCAATTTCTCCAAATATTTTCTAATTGATAATATTTCAGGCTTATACATTTTTATGTTTACTTTGGGGATCACAAGAAAGCTAATCAACTTTTAATTTGTAGAATGTAACAGGGCATATTCACGTAAGTTTATACATACTTTCCTATATTTAATC", "normalised bound fraction": "0.448 ratio"}
{"Sequence": "TCTGGAAATTTTCTCTTACTTAACAGTCATTTTCTAAATATAATGGAATGTCATCTTTAGTCTATATCCAGGATCCTGGAATCCAAGTAATTCATGTTTACTTATTTTGTAGCTTAGCAGAAAACTGAATCTAGCTTAGTGTTCTGAATAAATAATAATTCTACAACCTAGAGAATTACTTGGCAGCACTATG", "normalised bound fraction": "0.379 ratio"}
{"Sequence": "TAACTCCCAAAAAACACACAGAAAGCCATTACAAAGCATAAAACAGACCAAGGAAAAATTAATAGCACTTGAACTTCCCACCAGATCCCAAAGTAAACATGAAGCCCATAGTGTCACAGTCAACACTTCAAAAAACTCCTTCAGGTGGGCCCCAAGATCTCCATACATGGGAAAACCATGTCAGAAAGATGAA", "normalised bound fraction": "0.426 ratio"}
{"Sequence": "ATTACCTTGTTGAATCTTTCTACAATGTATAAATATATTAAAACATCACATTGTATTCCACTAATACACACAATTATTAGTTGTTGATTAAAAGTAAATAAAGAAAAAGGAGAACAATGTTGAAGGACTATAGTAATCAAAACAGTGTGATACTGGCATAAACATAGACATGTAAATCAATGGCATACAATCA", "normalised bound fraction": "0.48 ratio"}
{"data": "Set 2", "target": "Centromere-binding protein 1, full length, N-terminal tag (CBF1, Saccharomyces cerevisiae, UniProt P17106, residues 1-351)", "technique": "protein-binding microarray", "molecule type": "double-stranded DNA, one strand shown", "matrix": "in vitro", "concentration": "0.8 µM", "setting": "whole 60-bp probe, no competitor", "reading": "higher = stronger binding", "constant ends, left off below": "… GTCTTGATTCGCTTGACGCTGCTG", "sequence of UniProt P17106 (whole entry, looked up)": "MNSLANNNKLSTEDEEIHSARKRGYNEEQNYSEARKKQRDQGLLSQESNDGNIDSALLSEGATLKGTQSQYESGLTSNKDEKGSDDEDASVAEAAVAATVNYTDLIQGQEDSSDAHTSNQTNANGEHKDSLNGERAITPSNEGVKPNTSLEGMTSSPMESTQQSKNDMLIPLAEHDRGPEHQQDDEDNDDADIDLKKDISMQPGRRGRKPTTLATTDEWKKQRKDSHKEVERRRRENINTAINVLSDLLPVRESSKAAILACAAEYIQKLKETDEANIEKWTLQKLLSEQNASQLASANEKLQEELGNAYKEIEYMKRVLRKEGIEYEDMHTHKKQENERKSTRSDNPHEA"}
{"Sequence": "GAATGTACAGAGTGTACCACCACGTTTTAATACTAG", "fluorescence intensity [a.u.]": 604}
{"Sequence": "CTAGATTTGCTGAGTCATGTTGTGGCTTTTCTTTTC", "fluorescence intensity [a.u.]": 559}
{"Sequence": "CTAATGGGCACTTGTCACATGTTAATGAAGTCATTC", "fluorescence intensity [a.u.]": 2600}
{"Sequence": "CTAATCACAAAATGTCACGTGCATGTTAGTCCATTC", "fluorescence intensity [a.u.]": 14200}
{"Sequence": "CTACATCCCAAAAGTTAGGTGATGGAATCAATATTC", "fluorescence intensity [a.u.]": 496}
{"Sequence": "CTAAAATTCCTCCTTCACGTTCTGTTGAAGGGATTC", "fluorescence intensity [a.u.]": 555}
{"Sequence": "GAATAATTTAATAAATACGTGACACAGCGTATATAG", "fluorescence intensity [a.u.]": 763}
{"Sequence": "GAATGTTTTGTTGAAAATCACATGAGTGGACGGTAG", "fluorescence intensity [a.u.]": 1310}
{"Sequence": "GAATATATATGCTAGTACAACACGTTTGGTTGATAG", "fluorescence intensity [a.u.]": 519}
{"Sequence": "GAATAAACAAAGTTTCATGTGAATTTGCTTAGTTAG", "fluorescence intensity [a.u.]": 504}
{"Sequence": "GAATTTTTTACAAACCACGTCAGGAGTTCAATTTAG", "fluorescence intensity [a.u.]": 700}
{"Sequence": "GAACATCAAGATGATTTCGTGACACATACTCTTTAG", "fluorescence intensity [a.u.]": 554}
{"Sequence": "GAAGACGTTTAGAGTGACGTGAATCACTGTTAATAG", "fluorescence intensity [a.u.]": 508}
{"data": "Set 3", "target": "PABPC1L2, full length, GST fusion (mouse, UniProt A0ABA7IW68)", "technique": "RNAcompete", "molecule type": "RNA", "matrix": "in vitro", "concentration": "20 nM", "setting": "7-mer, probes averaged, single round", "baseline": "mean of 7-mers", "reading": "higher = stronger binding", "Residues (chain)": "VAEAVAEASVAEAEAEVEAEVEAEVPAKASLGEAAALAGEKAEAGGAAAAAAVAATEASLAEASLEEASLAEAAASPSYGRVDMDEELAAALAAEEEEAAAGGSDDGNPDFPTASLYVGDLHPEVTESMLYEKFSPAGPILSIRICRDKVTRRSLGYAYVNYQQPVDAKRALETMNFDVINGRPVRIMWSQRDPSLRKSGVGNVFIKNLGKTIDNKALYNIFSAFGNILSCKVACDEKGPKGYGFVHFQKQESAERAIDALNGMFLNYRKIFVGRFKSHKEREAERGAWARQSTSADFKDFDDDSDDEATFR"}
{"Sequence": "AACGUGC", "7-mer Z-score": 0.0515}
{"Sequence": "GCGACAA", "7-mer Z-score": 0.323}
{"Sequence": "UCACGUG", "7-mer Z-score": -0.257}
{"Sequence": "GAGUAGU", "7-mer Z-score": -0.208}
{"Sequence": "UAGCACC", "7-mer Z-score": -0.258}
{"Sequence": "CCAGUCG", "7-mer Z-score": -0.365}
{"Sequence": "AAGGUAC", "7-mer Z-score": 0.2}
{"Sequence": "CAGGGUG", "7-mer Z-score": -0.0246}
{"Sequence": "CACAGAA", "7-mer Z-score": 0.436}
{"Sequence": "GAACUAG", "7-mer Z-score": -0.0518}
{"data": "Set 4", "Substance": "PhoQ, residues 284 288 289 292 302 303 SMYGEC", "technique": "Sort-seq", "measured": "YFP reporter", "matrix": "E. coli", "setting": "PhoQ-PhoP variant library", "with": "10 µM Mg2+", "baseline": "high Mg2+ state", "reading": "higher = stronger signaling"}
{"target": "PhoP, residues 12 14 15 18 19 NQCAL (Escherichia coli, UniProt P23836)", "fold induction": 2.65}
{"target": "PhoP, residues 12 14 15 18 19 TQAML (Escherichia coli, UniProt P23836)", "fold induction": 3.56}
{"target": "PhoP, residues 12 14 15 18 19 LHTVL (Escherichia coli, UniProt P23836)", "fold induction": 12.7}
{"note": "Repeated from above (set 4):"}
{"target": "PhoP, residues 12 14 15 18 19 NQCAL (Escherichia coli, UniProt P23836)", "fold induction": 2.65}
{"target": "PhoP, residues 12 14 15 18 19 TQAML (Escherichia coli, UniProt P23836)", "fold induction": 3.56}
